# Measured values of several laboratories.
# Each line is one published result; not all experiments were run side by side. ± marks the error that the study gave.
# Chain of UniProt P20815 (whole entry, looked up): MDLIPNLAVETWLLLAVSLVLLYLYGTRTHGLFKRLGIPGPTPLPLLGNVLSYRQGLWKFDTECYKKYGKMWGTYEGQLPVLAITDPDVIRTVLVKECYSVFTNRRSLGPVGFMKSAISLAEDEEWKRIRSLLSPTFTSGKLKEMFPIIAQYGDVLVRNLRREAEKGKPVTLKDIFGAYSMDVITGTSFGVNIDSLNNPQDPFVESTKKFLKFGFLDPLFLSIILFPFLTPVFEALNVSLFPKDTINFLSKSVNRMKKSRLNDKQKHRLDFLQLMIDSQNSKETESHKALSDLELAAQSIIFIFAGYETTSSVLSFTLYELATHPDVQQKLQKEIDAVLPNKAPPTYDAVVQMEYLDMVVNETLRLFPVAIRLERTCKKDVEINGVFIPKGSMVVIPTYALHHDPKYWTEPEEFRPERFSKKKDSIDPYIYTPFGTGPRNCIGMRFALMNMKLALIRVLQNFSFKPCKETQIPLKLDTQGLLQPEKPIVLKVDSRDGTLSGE
# Chain of UniProt O33336 (whole entry, looked up): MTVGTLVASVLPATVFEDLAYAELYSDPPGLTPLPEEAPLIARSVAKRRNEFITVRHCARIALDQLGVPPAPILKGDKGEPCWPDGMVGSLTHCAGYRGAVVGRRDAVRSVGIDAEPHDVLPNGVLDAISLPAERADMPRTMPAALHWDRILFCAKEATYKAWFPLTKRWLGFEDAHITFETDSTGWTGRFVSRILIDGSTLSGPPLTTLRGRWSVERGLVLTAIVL
# Chain of UniProt Q14160 (whole entry, looked up): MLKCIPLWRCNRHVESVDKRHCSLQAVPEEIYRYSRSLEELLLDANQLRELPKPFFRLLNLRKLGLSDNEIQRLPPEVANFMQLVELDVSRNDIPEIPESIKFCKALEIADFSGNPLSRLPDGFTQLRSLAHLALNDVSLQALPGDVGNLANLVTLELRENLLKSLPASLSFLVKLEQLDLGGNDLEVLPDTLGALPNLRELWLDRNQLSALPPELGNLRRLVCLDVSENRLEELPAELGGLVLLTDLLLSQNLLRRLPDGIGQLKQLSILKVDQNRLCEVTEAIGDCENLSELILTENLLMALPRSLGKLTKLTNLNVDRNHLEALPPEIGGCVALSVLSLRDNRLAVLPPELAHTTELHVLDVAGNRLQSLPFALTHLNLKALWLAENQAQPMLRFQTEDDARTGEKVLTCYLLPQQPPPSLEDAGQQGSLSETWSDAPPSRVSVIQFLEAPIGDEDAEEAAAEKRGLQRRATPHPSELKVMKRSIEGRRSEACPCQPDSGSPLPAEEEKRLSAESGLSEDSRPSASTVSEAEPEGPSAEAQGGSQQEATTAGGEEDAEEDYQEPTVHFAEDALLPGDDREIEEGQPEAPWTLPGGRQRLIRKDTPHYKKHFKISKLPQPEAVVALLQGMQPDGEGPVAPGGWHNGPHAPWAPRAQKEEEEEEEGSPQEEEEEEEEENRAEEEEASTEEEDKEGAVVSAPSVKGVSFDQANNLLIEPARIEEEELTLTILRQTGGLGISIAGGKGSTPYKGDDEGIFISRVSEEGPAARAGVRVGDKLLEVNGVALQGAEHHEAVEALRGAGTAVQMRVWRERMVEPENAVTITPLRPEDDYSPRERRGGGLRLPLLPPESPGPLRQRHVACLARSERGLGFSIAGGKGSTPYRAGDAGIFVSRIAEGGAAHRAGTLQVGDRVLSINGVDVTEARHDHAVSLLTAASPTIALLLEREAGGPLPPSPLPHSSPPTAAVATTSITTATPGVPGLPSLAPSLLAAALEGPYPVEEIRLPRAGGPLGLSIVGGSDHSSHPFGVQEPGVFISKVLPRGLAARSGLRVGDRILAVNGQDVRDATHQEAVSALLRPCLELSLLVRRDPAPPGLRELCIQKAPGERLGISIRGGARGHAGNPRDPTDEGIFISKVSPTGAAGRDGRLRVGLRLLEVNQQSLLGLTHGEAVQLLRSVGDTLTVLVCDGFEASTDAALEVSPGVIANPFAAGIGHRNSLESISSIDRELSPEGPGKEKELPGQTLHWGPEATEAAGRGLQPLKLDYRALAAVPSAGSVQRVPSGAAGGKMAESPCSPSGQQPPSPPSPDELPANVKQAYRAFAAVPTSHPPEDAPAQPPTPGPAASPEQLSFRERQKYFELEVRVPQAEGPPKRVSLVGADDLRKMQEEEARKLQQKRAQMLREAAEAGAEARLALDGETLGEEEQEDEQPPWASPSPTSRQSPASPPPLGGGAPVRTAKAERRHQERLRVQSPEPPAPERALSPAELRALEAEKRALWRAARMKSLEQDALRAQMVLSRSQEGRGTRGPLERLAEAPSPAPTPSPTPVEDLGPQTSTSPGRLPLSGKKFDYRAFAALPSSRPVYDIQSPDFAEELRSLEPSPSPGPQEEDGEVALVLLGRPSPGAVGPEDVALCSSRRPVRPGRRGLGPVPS
Structure (SMILES),target or system,assay,system,setting,how to read,measurement,result
CN1CC[C@]23c4c5ccc(O[C@@H]6O[C@H](C(=O)O)[C@@H](O)[C@H](O)[C@H]6O)c4O[C@H]2[C@@H](O)C=C[C@H]3[C@H]1C5,,,"rat, whole blood","10 nM, 4 h, room temperature, bench-top storage",,stability bias,-7.5%
CC(C)CC(=O)OC[C@H]1O[C@@](C#N)(c2ccc3c(N)ncnn23)[C@H](O)[C@@H]1O,"Cytochrome P450 3A5 (CYP3A5, Homo sapiens, UniProt P20815)",metabolic stability,recombinant enzyme,"1 µM, 30 min",,remaining compound,34.1 ± 0.8%
O=C(O)CCc1nc(-c2ccccc2)c(-c2ccccc2)o1,African green monkey cells,,,5 days,,CC50,> 50.1 µM
CC[C@H](C)[C@H](NC(=O)[C@H](CCC(N)=O)NC(=O)[C@@H](NC(=O)[C@@H](NC(=O)[C@H](Cc1c[nH]cn1)NC(=O)[C@H](CCC(N)=O)NC(=O)CNC(=O)[C@@H]1CCCN1C(=O)[C@H](C)NC(=O)[C@@H]1CCCN1)[C@@H](C)O)[C@@H](C)O)C(=O)O,"Protein scribble homolog, PDZ3 domain (SCRIB, Homo sapiens, UniProt Q14160)","binding, fluorescence polarization",solution,Scribble PDZ3 domain,,Kd,52.2 µM
CCNC(=N)NC(=O)Nc1c(F)cc(F)cc1F,"4'-phosphopantetheinyl transferase PptT (Mycobacterium tuberculosis, UniProt O33336)",inhibitor,,,,IC50,> 100 µM
CC(C)NCCc1c[nH]c2cccc(O)c12.O=C(O)/C=C/C(=O)O,,,C57BL/6J mice,"subcutaneous, 0.1 mg/kg, 30 min",,distance travelled,1980 ± 251 cm
Clc1ccc(C(c2ccccc2)N2CCN(C/C=C/c3ccccc3)CC2)cc1 (stereo not drawn),African green monkey cells,,,5 days,,CC50,21.9 µM
CC[C@H](C)[C@H](NC(=O)[C@H](Cc1ccccc1)NC(=O)[C@H](CCC(=O)O)NC(=O)[C@H](CCCNC(=N)N)NC(=O)[C@H](C)NC(=O)[C@H](C)NC(=O)[C@H](CCC(N)=O)NC(=O)[C@H](CCC(=O)O)NC(=O)[C@H](CCC(=O)O)NC(=O)[C@H](CC(C)C)NC(=O)[C@H](Cc1ccc(O)cc1)NC(=O)[C@H](CO)NC(=O)[C@H](CO)NC(=O)[C@@H](NC(=O)[C@H](CC(=O)O)NC(=O)[C@H](CO)NC(=O)[C@@H](NC(=O)[C@H](Cc1ccccc1)NC(=O)[C@@H](NC(=O)CNC(=O)[C@H](CCC(=O)O)NC(=O)[C@H](C)NC(=O)CCc1c[nH]cn1)[C@@H](C)O)[C@@H](C)O)C(C)C)C(=O)N[C@@H](C)C(=O)N[C@@H](Cc1c[nH]c2ccccc12)C(=O)N[C@@H](CC(C)C)C(=O)N[C@H](C(=O)N[C@@H](CCCNC(=N)N)C(=O)NCC(=O)N[C@@H](CCCNC(=N)N)C(=O)N[C@@H](CCCCNC(=O)COCCOCCNC(=O)COCCOCCNC(=O)CC[C@H](NC(=O)CCCCCCCCCCCCCCCCC(=O)O)C(=O)O)C(=O)NCC(=O)NCC(=O)N[C@@H](CO)C(=O)N[C@@H](CCCCNc1c(NCCCCCN(O)C(=O)CCC(=O)NCCCCCN(O)C(=O)CCC(=O)NCCCCCN(O)C(C)=O)c(=O)c1=O)C(=O)O)C(C)C,,,"rat, plasma","intravenous, 20 nmol/kg",,dose-normalised AUC,143 kg·h/L
CSc1ccc2c(c1)C(N1CCN(C)CC1)Cc1ccccc1S2 (stereo not drawn),African green monkey cells,,,5 days,,CC50,7 µM
CC(C)(C)NCCc1c[nH]c2cccc(O)c12.CC(C)(C)NCCc1c[nH]c2cccc(O)c12.O=C(O)/C=C/C(=O)O,,,C57BL/6J mice,"subcutaneous, 3 mg/kg, 30 min",,distance travelled,2750 ± 266 cm
COc1cccc(-c2n[nH]c(SCc3ccccn3)n2)c1OC,Salmonella typhimurium,preincubation Ames test,TA98,2.0 mg per plate,,revertant colonies per plate,5
O=C(c1ccc(F)c(F)c1Nc1ccc(I)cc1F)N1CC(O)([C@@H]2CCCCN2)C1,,,patients aged 6 to sample A years,"oral, dose not given",,treatment-related serious AE,7%
O=C1c2c(O)c(=O)ccn2N([C@@H]2c3ccccc3SCc3c2ccc(F)c3F)[C@@H]2COCCN12,,,"BALB/c mice, plasma","oral, 1.5 mg/kg baloxavir marboxil, 10 h",,plasma concentration,1.95 ng/mL
CN1CC[C@]23c4c5ccc(O)c4O[C@H]2[C@@H](O[C@@H]2O[C@H](C(=O)O)[C@@H](O)[C@H](O)[C@H]2O)C=C[C@H]3[C@H]1C5,,,"rat, whole blood","10 nM, 4 h, room temperature, bench-top storage",,stability bias,4.83%
Cc1cc(C(=O)NC(C)(C)COc2cccc3c2C(N)=NS(=O)(=O)N3)cc(C)n1,Salmonella typhimurium,"Ames test, confirmatory",TA100,333 µg/plate,baseline: solvent control,revertant ratio,0.9
O=C1CC2(CCCC2)CC(=O)N1CCCCN1CCN(c2nsc3ccccc23)CC1,African green monkey cells,,,5 days,,CC50,24.6 µM
CC(=O)Oc1ccc2c3c1O[C@H]1[C@@H](OC(C)=O)C=C[C@H]4[C@@H](C2)N(C)CC[C@@]341,,,"rat, whole blood","10 nM, 4 months, -80 °C, long-term storage",,stability bias,-13.8%
CCC(=O)C(CC(C)N(C)C)(c1ccccc1)c1ccccc1 (stereo not drawn),African green monkey cells,,,5 days,,CC50,13.2 µM
O=c1ccc2ccccc2o1,NHEK,cell count,,"concentration not given, 6 h, HIF1alpha, inflammation, pH panel",,chance response,0.01%
N=C(N)NCCC[C@H](NC(=O)[C@@H](Cc1ccccc1)NC(=O)[C@H](Cc1c[nH]cn1)NC(=O)CCCc1ccccc1)C(=O)N[C@@H](Cc1c[nH]c2ccccc12)C(=O)NCC(=O)N[C@@H](CCCCNC(=O)CCCCCNC(=O)CN1CCN(CC(=O)O)CCN(CC(=O)O)CCN(CC(=O)O)CC1)C(N)=O [actinium-225 labelled],,five-compartment model fit,"SCID mice, A-375 and A-375/MC1R xenografts",,,liver elimination rate constant (kle),0.0002 h⁻¹
CC(=O)O[C@H]1C=C[C@H]2[C@H]3Cc4ccc(O)c5c4[C@@]2(CCN3C)[C@H]1O5,,,"rat, whole blood","10 nM, 4 months, -80 °C, long-term storage",,stability bias,-15.5%
CNCc1ccc(-c2cc(-c3nc(-c4ccc(S(=O)(=O)C(C)C)cc4)cnc3N)on2)cc1,African green monkey cells,,,5 days,,CC50,10.2 µM
COC(=O)[C@H]1[C@@H](OC(=O)c2ccccc2)C[C@@H]2CC[C@H]1N2C,,,"rat, whole blood","500 nM, 4 months, -80 °C, long-term storage",,stability bias,4.42%
CCCCCCCCCCCCCCCC(=O)OCC(CSC[C@H](N)C(=O)N[C@@H](CO)C(=O)N[C@@H](CCCCN)C(=O)N[C@@H](CCCCN)C(=O)N[C@@H](CCCCN)C(=O)N[C@@H](CCCCN)C(=O)Nc1ccc(Cn2c(O)nc3c(N)nc(NCCCC)nc32)cc1)OC(=O)CCCCCCCCCCCCCCC (stereo partly drawn),HFF-1,,,"100 µg/mL, 48 h",,viability,12.1%
O=C(O)C[C@H](NC(=O)[C@H](CC(=O)O)NC(=O)[C@H](CC(=O)O)NC(=O)[C@H](CC(=O)O)NC(=O)[C@H](CC(=O)O)NC(=O)[C@H](CC(=O)O)NC(=O)[C@H](CC(=O)O)NC(=O)[C@H](CC(=O)O)NC(=O)[C@H](CC(=O)O)NC(=O)[C@H](CC(=O)O)NC(=O)[C@H](CC(=O)O)NC(=O)[C@H](CCCCNC(=O)c1ccc(C(=O)NCCOCCOB2BBBBBB3BBBB3B2)cc1)NC(=O)CN1CCN(CC(=O)O)CCN(CC(=O)O)CCN(CC(=O)O)CC1)C(=O)O [gallium-67 labelled],,,"ddY male mice, kidney","intravenous, 37 kBq, 3 h",,tissue uptake,3.4 %ID/g
CN1[C@H]2CC[C@@H]1[C@@H](C(=O)O)[C@@H](OC(=O)c1ccccc1)C2,,,"rat, whole blood","1000 nM, 4 months, -80 °C, long-term storage",,stability bias,9.98%
CC(C)[C@@H]1NC(=O)[C@H](Cc2ccccc2)NC(=O)[C@@H]2NC(=O)[C@H](Cc3ccccc3)NC(=O)[C@@H]3CCCN3C(=O)CNC(=O)[C@H](Cc3ccccc3)NC(=O)[C@@H]3CNCCCC[C@@H](C(=O)O)NC(=O)[C@@H]4NC(=O)[C@H](CC(N)=O)NC(=O)CNC(=O)[C@H]([C@@H](O)C(=O)O)NC(=O)[C@H](CSC[C@@H](NC(=O)[C@H](CCC(N)=O)NC(=O)[C@H](CCCCNC(=O)c5ccc(NN)nc5)NC(=O)[C@@H](N)CS[C@H]4C)C(=O)N[C@@H](CS[C@H]2C)C(=O)N3)NC1=O [technetium-99m labelled],,,"rat ischemia-reperfusion, heart","saline, 24 h reperfusion",baseline: infarct over normal myocardium,tissue radioactivity ratio,14.1 ± 1.78

# For quick reference, copied from above:
Structure (SMILES),target or system,assay,system,setting,how to read,measurement,result
CC(C)CC(=O)OC[C@H]1O[C@@](C#N)(c2ccc3c(N)ncnn23)[C@H](O)[C@@H]1O,"Cytochrome P450 3A5 (CYP3A5, Homo sapiens, UniProt P20815)",metabolic stability,recombinant enzyme,"1 µM, 30 min",,remaining compound,34.1 ± 0.8%
O=C(O)CCc1nc(-c2ccccc2)c(-c2ccccc2)o1,African green monkey cells,,,5 days,,CC50,> 50.1 µM
CC[C@H](C)[C@H](NC(=O)[C@H](CCC(N)=O)NC(=O)[C@@H](NC(=O)[C@@H](NC(=O)[C@H](Cc1c[nH]cn1)NC(=O)[C@H](CCC(N)=O)NC(=O)CNC(=O)[C@@H]1CCCN1C(=O)[C@H](C)NC(=O)[C@@H]1CCCN1)[C@@H](C)O)[C@@H](C)O)C(=O)O,"Protein scribble homolog, PDZ3 domain (SCRIB, Homo sapiens, UniProt Q14160)","binding, fluorescence polarization",solution,Scribble PDZ3 domain,,Kd,52.2 µM
